Measured values pooled from the literature.
Compare with care: the assays were run in different laboratories. Several values in a cell are separate wells, animals, samples, runs or records.

For Cc1ccc(OCCN(C)C)cc1C(=O)N[C@H](C)c1cc(-c2ccc(CNC3CCCC3)s2)nc2ccccc12, the viability was 7.31% and 1.83% (Vero E6; 250 µM).
CNC(=O)C[C@H](Cc1ccc(F)cc1)NC(=O)[C@@H](Cc1ccc(Cl)cc1Cl)NC(=O)[C@H](N)Cc1ccccc1C#N gave a viability of 1.02 and 0.996 and 1.03 (Huh-7-ACE2; CellTiter-Glo; 0.00153 µM, 48 h, unit not given; reference: DMSO).
Cc1ccc(OCCN(C)C)cc1C(=O)N[C@H](C)c1cc(-c2ccn(C)n2)nc2ccccc12 gave a viability of 92.6% and 96.6% and 96.2% (Vero E6; 3.906 µM).
For CNC(=O)CC[C@H](Cc1ccccc1)NC(=O)[C@@H](Cc1ccc(Cl)cc1Cl)NC(=O)[C@H](N)Cc1ccccc1[N+](=O)[O-], the viability was 0.985 and 0.984 and 1.08 (Huh-7-ACE2; CellTiter-Glo; 0.0061 µM, 48 h, unit not given; reference: DMSO).
For NC(=S)N/N=C/c1ccc(OCc2cccc(F)c2)cc1, the viability was 47.2% (IMR-32; MTT; 300 µg/mL, 24 h; reference: untreated control).
The viability of Cc1ccc(OCCN(C)C)cc1C(=O)N[C@H](C)c1cc(-c2scnc2C)nc2ccccc12 is reported as 97.4% and 94% (Vero E6; 15.62 µM).
With CNC(=O)C[C@H](Cc1ccc(F)cc1)NC(=O)[C@@H](Cc1ccc(Cl)cc1Cl)NC(=O)[C@H](N)Cc1ccccc1[N+](=O)[O-] the viability was 0.942 and 0.931 and 1.01 (Huh-7-ACE2; CellTiter-Glo; 0.000381 µM, 48 h, unit not given; reference: DMSO).
Cc1ccc(O[C@H]2CCN(C)C2)cc1C(=O)N[C@H](C)c1cc(-c2cnn(C)c2)nc2ccccc12 gave a viability of 71.1% and 80.4% and 75.7% (Vero E6; 31.25 µM).
N=C(N)NCCC[C@H](N)C(=O)N[C@@H](Cc1c[nH]c2ccccc12)C(=O)N[C@@H](Cc1ccc(O)cc1)C(=O)N[C@@H](CC(=O)O)C(=O)O — result for viability: “not toxic” (PC-9, A549, HCC44, Lewis lung carcinoma; CCK-8; concentration not given, 48 h).
The viability of CNC(=S)N/N=C/c1ccc(OCc2ccccc2)cc1 is reported as 85.3% (IMR-32; MTT; 100 µg/mL, 24 h; reference: untreated control).
CCn1ccc(-c2cc(C(C)NC(=O)c3cc(N4CC5CC4CN5C)ccc3C)c3ccccc3n2)n1 (stereo not shown) gave a viability of 103% and 97.1% and 99.2% (Vero E6; 7.812 µM).
The viability of CCCCCCCCCCCCCCCC(=O)OCC(CSC[C@H](N)C(=O)NCC(=O)N[C@@H](CC(=O)O)C(=O)N1CCC[C@H]1C(=O)N[C@@H](CCCCN)C(=O)N[C@@H](Cc1c[nH]cn1)C(=O)N1CCC[C@H]1C(=O)N[C@@H](CCCCN)C(=O)N[C@@H](CO)C(=O)N[C@@H](Cc1ccccc1)C(=O)O)OC(=O)CCCCCCCCCCCCCCC (stereo partly shown) is reported as 78% (HFF-1; 0.01 µg/mL, 48 h).
With CCn1ccc(-c2cc([C@@H](C)NC(=O)c3cc(N4CCN(C)[C@H](C)C4)ccc3C)c3ccccc3n2)n1 the viability was 98.3% and 99.5% and 95% (Vero E6; 7.812 µM).
CNC(=O)C[C@H](Cc1ccncc1)NC(=O)[C@@H](Cc1cccc(Br)c1)NC(=O)[C@@H](N)Cc1ccsc1 gave a viability of 1.05 and 1.04 (Huh-7-ACE2; CellTiter-Glo; 0.0061 µM, 48 h, unit not given; reference: DMSO).
CCCCCCCCCCCCCCCC(=O)N[C@@H](CSCC(COC(=O)CCCCCCCCCCCCCCC)OC(=O)CCCCCCCCCCCCCCC)C(=O)N[C@@H](CO)C(=O)N[C@@H](CCCCN)C(=O)N[C@@H](CCCCN)C(=O)N[C@@H](CCCCN)C(=O)N[C@@H](CCCCN)C(=O)O (stereo partly shown) has a viability of 95% (HFF-1; 0.1 µg/mL, 48 h).
With Cc1ccc(N2CCC(N(C)C)CC2)cc1C(=O)N[C@H](C)c1cc(-c2cnn(C)c2)nc2ccccc12 the viability was 83.9% and 84.4% and 79.6% (Vero E6; 31.25 µM).
With CCOc1ccc(CN2CC[C@H]2C(=O)NC)cc1-c1cccc(C(=O)NC[C@@H]2COC(C)(C)O2)c1 the viability was 0.933 and 1.02 and 0.955 (Huh-7-ACE2; CellTiter-Glo; 0.195 µM, 48 h, unit not given; reference: DMSO).
For O=c1n(CCNCCOS(=O)(=O)c2ccccc2)c(=O)n(S(=O)(=O)c2ccccc2)c(=O)n1S(=O)(=O)c1ccccc1, the viability was 23% (HUVEC; cell growth or viability, MTT; 25 µg/mL, 72 h).
The viability of CCCCCCCCCCCCCCCC(=O)OCC(CSC[C@H](N)C(=O)N[C@@H](CO)C(=O)N[C@@H](CCCCN)C(=O)N[C@@H](CCCCN)C(=O)N[C@@H](CCCCN)C(=O)N[C@@H](CCCCN)C(=O)O)OC(=O)CCCCCCCCCCCCCCC (stereo partly shown) is reported as 91.2% (HFF-1; 1 µg/mL, 48 h).
For Cc1ccc(N2C[C@@H]3C[C@H]2CN3C)cc1C(=O)N[C@H](C)c1cc(-c2cnn(C)c2)nc2ccccc12, the viability was 96.7% (African green monkey cells; 62.5 µM).
COc1cc(OCc2cccc(-c3ccccc3)c2C)cc(OC)c1CN1CCCC[C@H]1C(=O)O gave a viability of 78.1% (MDA-MB-231; cell growth or viability, CCK-8; 10 µM, 24 h).
CNC(=O)C[C@H](Cc1ccccc1)NC(=O)[C@@H](Cc1ccc(Cl)cc1Cl)NC(=O)[C@H](N)Cc1ccccc1C#N has a viability of 0.962 and 1.01 and 0.943 (Huh-7-ACE2; CellTiter-Glo; 12.5 µM, 48 h, unit not given; reference: DMSO).
For NC(=O)N/N=C/c1ccc(OCc2cccc(F)c2)cc1, the viability was 63.5% (IMR-32; MTT; 200 µg/mL, 24 h; reference: untreated control).
The viability of CNC(=O)C[C@H](Cc1ccncc1)NC(=O)[C@@H](Cc1cccc(Br)c1)NC(=O)[C@@H](N)Cc1cccc(F)c1 is reported as 1.13 and 0.964 and 1.19 (Huh-7-ACE2; CellTiter-Glo; 0.195 µM, 48 h, unit not given; reference: DMSO).
NC(=S)N/N=C/c1ccc(OCc2ccccc2)cc1 gave a viability of 24% (IMR-32; MTT; 500 µg/mL, 24 h; reference: untreated control).

Some of these lines once more:
With CCn1ccc(-c2cc([C@@H](C)NC(=O)c3cc(N4CCN(C)[C@H](C)C4)ccc3C)c3ccccc3n2)n1 the viability was 98.3% and 99.5% and 95% (Vero E6; 7.812 µM).
CNC(=O)C[C@H](Cc1ccncc1)NC(=O)[C@@H](Cc1cccc(Br)c1)NC(=O)[C@@H](N)Cc1ccsc1 gave a viability of 1.05 and 1.04 (Huh-7-ACE2; CellTiter-Glo; 0.0061 µM, 48 h, unit not given; reference: DMSO).
